# Measurements gathered from unrelated publications.
# Compare with care: the assays were run in different laboratories. ± marks the error that the study gave.
# MAPKAPK2: MAP kinase-activated protein kinase 2 (MAPKAPK2, Homo sapiens, UniProt P49137)
# Chain of UniProt P49137 (whole entry, looked up): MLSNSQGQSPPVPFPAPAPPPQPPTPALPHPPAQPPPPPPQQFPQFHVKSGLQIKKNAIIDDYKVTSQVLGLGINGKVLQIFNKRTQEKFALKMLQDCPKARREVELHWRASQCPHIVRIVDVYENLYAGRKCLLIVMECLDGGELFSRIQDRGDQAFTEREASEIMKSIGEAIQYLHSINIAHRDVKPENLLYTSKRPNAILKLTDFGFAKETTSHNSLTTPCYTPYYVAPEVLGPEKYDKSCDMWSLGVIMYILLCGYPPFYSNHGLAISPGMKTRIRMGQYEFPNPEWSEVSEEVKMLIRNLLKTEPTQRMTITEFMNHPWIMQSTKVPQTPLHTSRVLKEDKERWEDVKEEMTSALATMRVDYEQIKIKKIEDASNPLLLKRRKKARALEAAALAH
# EPHA4: Ephrin type-A receptor 4 (EPHA4, Homo sapiens, UniProt P54764)
# Chain of UniProt P54764 (whole entry, looked up): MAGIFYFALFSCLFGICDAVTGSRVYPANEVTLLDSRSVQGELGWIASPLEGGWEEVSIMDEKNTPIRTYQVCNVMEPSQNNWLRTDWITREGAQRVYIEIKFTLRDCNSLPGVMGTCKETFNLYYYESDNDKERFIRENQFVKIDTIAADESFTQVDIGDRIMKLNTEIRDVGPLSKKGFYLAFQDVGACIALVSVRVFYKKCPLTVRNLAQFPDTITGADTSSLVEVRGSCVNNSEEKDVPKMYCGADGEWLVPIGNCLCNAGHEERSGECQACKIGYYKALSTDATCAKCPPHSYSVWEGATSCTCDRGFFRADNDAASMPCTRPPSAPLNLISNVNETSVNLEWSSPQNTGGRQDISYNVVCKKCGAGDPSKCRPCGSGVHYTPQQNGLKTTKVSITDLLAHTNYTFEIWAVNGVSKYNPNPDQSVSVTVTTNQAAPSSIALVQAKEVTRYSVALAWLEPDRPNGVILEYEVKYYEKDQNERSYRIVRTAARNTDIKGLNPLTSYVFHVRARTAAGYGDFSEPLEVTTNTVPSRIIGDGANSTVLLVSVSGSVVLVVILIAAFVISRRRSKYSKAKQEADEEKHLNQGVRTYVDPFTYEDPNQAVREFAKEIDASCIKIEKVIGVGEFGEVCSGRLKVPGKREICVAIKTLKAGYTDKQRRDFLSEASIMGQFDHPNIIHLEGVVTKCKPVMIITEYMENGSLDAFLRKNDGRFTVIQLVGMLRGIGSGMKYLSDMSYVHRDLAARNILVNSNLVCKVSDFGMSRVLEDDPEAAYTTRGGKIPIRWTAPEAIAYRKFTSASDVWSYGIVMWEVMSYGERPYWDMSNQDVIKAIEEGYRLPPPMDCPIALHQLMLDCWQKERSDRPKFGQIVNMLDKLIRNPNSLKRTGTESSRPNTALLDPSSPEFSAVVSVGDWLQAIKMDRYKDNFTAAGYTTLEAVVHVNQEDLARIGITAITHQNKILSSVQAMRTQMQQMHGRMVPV
# Chain of UniProt P35626 (whole entry, looked up): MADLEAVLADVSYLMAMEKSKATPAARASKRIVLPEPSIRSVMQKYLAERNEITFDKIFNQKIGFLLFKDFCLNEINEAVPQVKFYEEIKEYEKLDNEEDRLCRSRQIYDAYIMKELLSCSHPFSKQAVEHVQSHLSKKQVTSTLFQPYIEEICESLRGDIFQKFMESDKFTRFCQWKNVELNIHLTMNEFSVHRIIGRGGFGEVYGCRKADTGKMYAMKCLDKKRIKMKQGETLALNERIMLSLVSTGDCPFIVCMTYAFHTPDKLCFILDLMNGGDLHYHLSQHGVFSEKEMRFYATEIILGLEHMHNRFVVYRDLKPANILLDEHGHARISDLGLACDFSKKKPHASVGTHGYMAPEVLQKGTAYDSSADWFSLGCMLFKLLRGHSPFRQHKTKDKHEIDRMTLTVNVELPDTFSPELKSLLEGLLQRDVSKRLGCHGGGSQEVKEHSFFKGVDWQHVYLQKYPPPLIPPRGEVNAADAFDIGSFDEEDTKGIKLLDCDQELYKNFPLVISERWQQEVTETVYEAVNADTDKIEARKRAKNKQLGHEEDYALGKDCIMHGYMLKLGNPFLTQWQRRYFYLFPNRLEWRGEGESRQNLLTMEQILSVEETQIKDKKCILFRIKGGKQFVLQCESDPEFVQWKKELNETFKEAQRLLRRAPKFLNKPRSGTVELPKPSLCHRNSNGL
# Chain of UniProt Q9P1W9 (whole entry, looked up): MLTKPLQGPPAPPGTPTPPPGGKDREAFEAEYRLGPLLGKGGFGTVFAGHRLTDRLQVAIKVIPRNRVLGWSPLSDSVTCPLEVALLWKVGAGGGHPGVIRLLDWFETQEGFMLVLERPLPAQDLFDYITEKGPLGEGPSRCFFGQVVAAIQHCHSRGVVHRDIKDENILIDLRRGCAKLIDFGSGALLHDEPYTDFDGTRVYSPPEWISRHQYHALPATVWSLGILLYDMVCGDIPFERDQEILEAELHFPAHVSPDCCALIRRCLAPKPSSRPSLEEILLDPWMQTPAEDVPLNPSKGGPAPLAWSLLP
# Chain of UniProt Q9UIK4 (whole entry, looked up): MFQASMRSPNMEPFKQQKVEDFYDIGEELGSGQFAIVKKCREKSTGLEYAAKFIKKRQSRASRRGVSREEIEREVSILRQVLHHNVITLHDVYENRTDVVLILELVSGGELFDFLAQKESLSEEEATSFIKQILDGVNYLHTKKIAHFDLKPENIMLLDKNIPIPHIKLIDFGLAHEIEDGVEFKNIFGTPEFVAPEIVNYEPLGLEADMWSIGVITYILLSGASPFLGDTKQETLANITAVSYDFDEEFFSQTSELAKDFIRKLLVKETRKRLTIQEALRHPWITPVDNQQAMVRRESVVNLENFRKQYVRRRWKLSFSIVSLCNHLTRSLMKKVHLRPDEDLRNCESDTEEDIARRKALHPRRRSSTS
SMILES,target or system,test,conditions,how to read,endpoint,value
O=C1NC(=O)/C(=C/c2ccc(-c3ccc(F)cc3O)o2)S1,"PIM2 (Homo sapiens, UniProt Q9P1W9)",enzyme activity,10 µM,,remaining activity,7%
Cc1cc(Nc2cc(N3CCN(C)CC3)nc(Sc3ccc(NC(=O)C4CC4)cc3)n2)[nH]n1,MAPKAPK2,"kinase activity, KinaseProfiler","0.03 µM, species human",reference: control,remaining activity,92%
COc1cc(F)ccc1-c1ncnc(Nc2cccc(C[S@](C)(=N)=O)c2)n1,MAPKAPK2,kinase activity,"10 µM, with: 10 µM ATP",,remaining activity,107%
CNc1ncc2c(/C=C/C(=O)N3CCC(OC)CC3)nn(Cc3cccc(C(F)(F)F)c3)c2n1,EPHA4,"kinase activity, inhibitor",1 µM,reference: untreated control,remaining activity,80%
O=C(O)c1ccc(Nc2ncc3c(n2)-c2ccc(Cl)cc2C(c2c(F)cccc2F)=NC3)cc1,human TAK1(h),kinase activity,1 µM,,remaining activity,111%
CC[C@H](C)C(=O)O[C@H]1C[C@H](O)C=C2C=C[C@H](C)[C@H](CC[C@@H](O)C[C@@H](O)CC(=O)O)[C@H]21,COS-7,,"10 µM, 24 h, 0.1% DMSO, unit not given",reference: vehicle control,necrotic cells,0.65 ± 0.26
COc1cc(-c2cncc3c2CN(C)Cc2cc(N4CCNCC4)ccc2-3)cc(OC)c1OC,"DAPK2 (Homo sapiens, UniProt Q9UIK4)",kinase activity,"1 µM, human enzyme, with: ATP 10 µM",reference: DMSO control,remaining activity,108%
CN1C(C(=O)Nc2ccccn2)=C(O)c2sc(Cl)cc2S1(=O)=O,COS-7,,"100 µM, 24 h, 0.1% DMSO, unit not given",reference: control,confluence,0.82 ± 0.15
COc1cc(Nc2ncc3c(n2)-c2ccc(Cl)cc2C(c2c(F)cccc2OC)=NC3)ccc1C(=O)O,CSK,kinase activity,1 µM,,remaining activity,39%
COc1c(O[C@@H]2O[C@H](CO)[C@@H](O)[C@H](O)[C@H]2O)c(C)cc2c1C(=O)c1c(O)cccc1C2=O,HepaRG co-cultured with HK-2,MTT,"66.67 µM, 24 h",reference: untreated control,cell viability,64.8 ± 5.18%
O=C(NC1CCC1)c1ccc2nc(-c3cccc(NS(=O)(=O)NCCN4CCCCC4)c3)cn2c1,"GRK3 (Homo sapiens, UniProt P35626)",enzyme activity,10 µM,,remaining activity,100%
C=CC(=O)N1CCC[C@@H](n2nc(-c3ccc(Oc4ccccc4)cc3)c3c(N)ncnc32)C1,EPHA4,,10 µM,,remaining activity,133%

# Excerpt of the above:
SMILES,target or system,test,conditions,how to read,endpoint,value
CN1C(C(=O)Nc2ccccn2)=C(O)c2sc(Cl)cc2S1(=O)=O,COS-7,,"100 µM, 24 h, 0.1% DMSO, unit not given",reference: control,confluence,0.82 ± 0.15
